Measured values of several laboratories.
Lines come from different studies, so protocols differ. Values joined by “and” are separate records of one study, mostly repeats; a detail may differ. ± gives the spread as reported.

| Molecule | assay | system | conditions | how to read | quantity | result |
| --- | --- | --- | --- | --- | --- | --- |
| CSCC[C@@H]1NC(=O)[C@H](CC(=O)O)NC(=O)CNC(=O)[C@H](CCCNC(=N)N)NC(=O)[C@H](C)NC(=O)[C@H](CCC(=O)O)NC(=O)[C@H](CCCNC(=N)N)NC(=O)[C@@H]2CSSC[C@@H]3NC(=O)[C@H](CO)NC(=O)[C@H]([C@@H](C)O)NC(=O)[C@@H]4CCCN4C(=O)[C@H](C)NC(=O)[C@H](Cc4c[nH]c5ccccc45)NC(=O)[C@H](CC(=O)O)NC(=O)CNC(=O)[C@H](CCCNC(=N)N)NC(=O)CNC(=O)[C@H](CCC(N)=O)NC(=O)[C@@H]4CCCN4C(=O)[C@@H](NC(=O)CNC(=O)C(C)F)CSSC[C@H](NC(=O)CNC(=O)[C@H](C)NC(=O)[C@H](CC(C)C)NC(=O)[C@H](CSSC[C@@H](C(=O)NCC(N)=O)NC(=O)[C@H]([C@@H](C)O)NC(=O)[C@H](CCCNC(=N)N)NC(=O)[C@@H]4CCCN4C1=O)NC(=O)[C@H](CC(=O)O)NC(=O)[C@H](CO)NC(=O)[C@H](CC(=O)O)NC(=O)[C@H](CCC(N)=O)NC(=O)[C@H](CO)NC3=O)C(=O)N[C@@H](C(C)C)C(=O)N2 (some centres unmarked) [fluorine-18 labelled] |  | nude mice U-87 MG xenograft, spleen | intravenous, 1 h |  | tissue uptake | 0.47 ± 0.04 %ID/g |
| CC[C@H](C)[C@H](NC(=O)[C@H](CCCCN)NC(=O)[C@@H](NC(=O)[C@H](CCC(N)=O)NC(=O)[C@H](CCCNC(=N)N)NC(=O)c1ccc2c(c1)C(=O)OC21c2ccc(O)cc2Oc2cc(O)ccc21)[C@@H](C)CC)C(=O)N[C@@H](Cc1c[nH]c2ccccc12)C(=O)N[C@@H](Cc1ccccc1)C(=O)N[C@@H](CCC(N)=O)C(=O)N[C@@H](CC(N)=O)C(=O)N[C@@H](CCCNC(=N)N)C(=O)N[C@@H](CCCNC(=N)N)C(=O)N[C@@H](CCSC)C(=O)N[C@@H](CCCCN)C(=O)N[C@@H](Cc1c[nH]c2ccccc12)C(=O)N[C@@H](CCCCN)C(=O)N[C@@H](CCCCN)C(=O)O |  | excised Sprague-Dawley rat skin | 50 µM, 0 to 5 h, 37 °C, 0.5% DMSO, FAM-labelled |  | Papp | 1.75 ± 0.25 ×10⁻⁶ cm/s |
| C/C=C(/C)C(=O)O[C@H]1CC[N+]2([O-])CC=C(COC(=O)[C@@](O)([C@H](C)OC)C(C)(C)O)[C@H]12 (some centres unmarked) |  | human whole blood | 1000 ng/mL, 60 min, 37 °C |  | blood-to-plasma ratio | 0.897 |
| CN[C@@](C)(C[18F])C(=O)O |  | SCID mouse U87 xenograft, kidney | 30 min, post injection |  | tissue uptake | 11 ± 2.6 %ID/g |
| CCc1cc(O)ccc1-c1ccc2c(-c3nc4c([nH]3)CN(C(C)C)[C@H](C(=O)N3CC(N(C)C)C3)C4)n[nH]c2c1 |  | human, plasma | inhalation, 10 mg, single dose, geometric mean |  | t1/2 | 24.4 h |
| [123I]c1cncc(OC[C@@H]2CCN2)c1 | SPECT | human, frontal lobe | intravenous bolus plus infusion, 5.2 mCi | baseline: tissue over plasma | tissue/plasma ratio | 19.9 |
| O[C@H]1CCCN[C@@H]1CCCn1cnc2c(Cl)c(Cl)ccc21 |  | healthy human volunteers, plasma | oral, 25 mg, day 1, multiple ascending dose |  | MRT | 7.36 h |
| CCCCCCCCCC(=O)N[C@@H](Cc1c[nH]c2ccccc12)C(=O)N[C@H](CC(N)=O)C(=O)N[C@@H](CC(=O)O)C(=O)N[C@@H]1C(=O)NCC(=O)N[C@@H](CCCN)C(=O)N[C@@H](CC(=O)O)C(=O)N[C@H](C)C(=O)N[C@@H](CC(=O)O)C(=O)NCC(=O)N[C@H](CO)C(=O)N[C@@H]([C@H](C)CC(=O)O)C(=O)N[C@@H](CC(=O)c2ccccc2N)C(=O)O[C@@H]1C |  | human, plasma | 7 mg/kg every 48 h, day 23 |  | trough plasma concentration | 33.4 µg/mL |
| NC(=O)c1nc(F)c[nH]c1=O | UV-Vis spectrophotometry | supercritical CO2 | 120 min, 308 K, 27 MPa, 913.69 kg/m^3 |  | solubility | 1340 µg/mL |
| CC[C@H](C)[C@H](NC(=O)CN)C(=O)NCC(=O)N[C@@H](C)C(=O)N[C@H](C(=O)N[C@@H](CC(C)C)C(=O)N[C@@H](CCCCN)C(=O)N[C@H](C(=O)N[C@@H](CC(C)C)C(=O)N[C@H](C(=O)N[C@H](C(=O)NCC(=O)N[C@@H](CC(C)C)C(=O)N1CCC[C@H]1C(=O)N[C@@H](C)C(=O)N[C@@H](CC(C)C)C(=O)N[C@H](C(=O)N[C@@H](CO)C(=O)N[C@@H](Cc1c[nH]c2ccccc12)C(=O)N[C@H](C(=O)N[C@@H](CCCCN)C(=O)N[C@@H](CCCNC(=N)N)C(=O)N[C@@H](CCCCN)C(=O)N[C@@H](CCCNC(=N)N)C(=O)N[C@@H](CCC(N)=O)C(=O)N[C@@H](CCC(N)=O)C(N)=O)[C@@H](C)CC)[C@@H](C)CC)[C@@H](C)O)[C@@H](C)O)C(C)C)C(C)C |  | sheep erythrocytes | 15 µM, 1 h, pH 7.4 | baseline: water lysis | hemolysis | 86 ± 17% |
| CCCCCOc1ccc(-c2ccc(-c3ccc(C(=O)N[C@H]4C[C@@H](O)[C@@H](O)NC(=O)[C@@H]5[C@@H](O)[C@@H](C)CN5C(=O)[C@H]([C@@H](C)O)NC(=O)[C@H]([C@H](O)[C@@H](O)c5ccc(O)cc5)NC(=O)[C@@H]5C[C@@H](O)CN5C(=O)[C@H]([C@@H](C)O)NC4=O)cc3)cc2)cc1 |  | patients aged 5 to <sample A years, plasma | intravenous, loading 3.0 then 1.5 mg/kg daily |  | clearance mean | 0.333 mL/min/kg |
| Cc1ccc(Nc2ccc3c(c2)C(c2ccccc2F)=NC(C)C(=O)N3)cc1 (centres unmarked) | shake flask | PBS | 24 h, pH 7.4 |  | solubility | 4.33 µM |
| CCCCCOc1ccc(-c2ccc(-c3ccc(C(=O)N[C@H]4C[C@@H](O)[C@@H](O)NC(=O)[C@@H]5[C@@H](O)[C@@H](C)CN5C(=O)[C@H]([C@@H](C)O)NC(=O)[C@H]([C@H](O)[C@@H](O)c5ccc(O)cc5)NC(=O)[C@@H]5C[C@@H](O)CN5C(=O)[C@H]([C@@H](C)O)NC4=O)cc3)cc2)cc1 |  | human infants, plasma | intravenous, 3 mg/kg loading dose, 24 h |  | trough concentration | 2300 ng/mL |
| CCCCCCCCCCCCCCCCCC[N+](C)(C)C | in vitro-in vivo extrapolation | human |  |  | hepatic clearance | 0.1 mL/h/g liver |
| CC[C@H](C)[C@H](NC(=O)[C@@H](N)CCCNC(=N)N)C(=O)N[C@H](C(=O)N1CCC[C@H]1C(=O)N[C@@H](C)C(N)=O)C(C)C |  | healthy volunteers, both sexes, plasma | intravenous infusion, 8.0 mg/kg, single ascending dose |  | Tmax | 0.0683 ± 0.00667 h |
| Cc1cnc(C(=O)N[C@H]2CCCCC/C=C\[C@@H]3C[C@@]3(C(=O)NS(=O)(=O)C3CC3)NC(=O)[C@@H]3C[C@@H](Oc4nc5ccccc5c5ccccc45)CN3C2=O)cn1 |  | healthy human volunteers, plasma | oral, dose not given, rosuvastatin interaction study | baseline: given without rosuvastatin | AUC(0-24) | 2010 ng·h/mL |

| Molecule | assay | system | conditions | how to read | quantity | result |
| --- | --- | --- | --- | --- | --- | --- |
| Cc1sc2c(c1C)C(c1ccc(Cl)cc1)=N[C@@H](CC(=O)OC(C)(C)C)c1nnc(C)n1-2 | LC-MS | Ringer's solution | 50 ng/mL, time not given, glass vessel, low-bind vial |  | recovery vs nominal | 61.1% and 69% |
| O=C(NCCS)c1cccc(C(=O)NCCS)c1 |  | rat Sprague-Dawley male | intravenous, 1 mg/kg, 0.5 h |  | plasma concentration | 259 ng/mL |
| CCCCCOc1ccc(-c2cc(-c3ccc(C(=O)N[C@H]4C[C@@H](O)[C@@H](O)NC(=O)[C@@H]5[C@@H](O)[C@@H](C)CN5C(=O)[C@H]([C@H](O)CC(N)=O)NC(=O)[C@H]([C@H](O)[C@@H](O)c5ccc(O)c(OS(=O)(=O)O)c5)NC(=O)[C@@H]5C[C@@H](O)CN5C(=O)[C@H]([C@@H](C)O)NC4=O)cc3)no2)cc1 |  | human paediatric patients 2 to 5 years, plasma | intravenous, 4.5 mg/kg once daily, day 7, median |  | weight-normalised steady-state clearance | 0.305 mL/min/kg |
| O=c1[nH]c(Cc2ccccn2)nc2c1cnn2C1CCOCC1 |  | male human, plasma | oral, 5 mg, single dose |  | Tmax | 0.5 h |
| CC(C)C[C@H](NC(=O)[C@H](C)NC(=O)[C@H](Cc1c[nH]cn1)NC(=O)[C@H](CO)NC(=O)[C@H](CCCCN)NC(=O)[C@H](Cc1ccccc1)NC(=O)CNC(=O)[C@@H](N)CC(N)=O)C(=O)N[C@@H](CCC(N)=O)C(=O)N[C@@H](CC(C)C)C(=O)N[C@@H](CC(N)=O)C(=O)N[C@@H](CC(N)=O)C(=O)N[C@@H](CCCNC(=N)N)C(=O)N[C@@H](CCC(N)=O)C(=O)O | LC-MS/MS | human serum | concentration not given, 4 h, room temperature, tube without gel separator | baseline: initial concentration | change in serum concentration | -55.5 ± 18% |
| Oc1ccc2ccc3c4ccccc4cc4ccc1c2c43 | UPLC-AMS | human, plasma | oral, 50 ng of [14C]-BaP |  | AUC | 8.5 ± 6.07 fg BaP equivalents·h/mL |
| Cc1ccncc1OC(=O)NCCCCCn1ccc2ccc(F)cc21 |  | porcine liver S9 fraction | 20 µM, 30 min, together with: BNPP 1 mM |  | inhibition of degradation | 45% |
| CC(C)C(=O)OC[C@H]1O[C@@H](n2ccc(NO)nc2=O)[C@H](O)[C@@H]1O |  | rat blood dialysate | 250 ng/mL, 6 h, 10 °C, autosampler stability, together with: NHC 1000 ng/mL |  | remaining compound | 100.3 ± 0.99% |
| CC(=O)N[C@H](CCCCNC(=O)C(C)F)C(=O)N[C@@H](CS)C(=O)N[C@@H](CS)C(=O)N[C@@H](CCC(=O)O)C(=O)N[C@@H](Cc1c[nH]cn1)C(=O)N[C@H](Cc1ccccc1)C(=O)N[C@@H](CCCNC(=N)N)C(=O)N[C@@H](Cc1c[nH]c2ccccc12)C(=O)N[C@@H](CS)C(=O)N[C@@H](CCCNC(=N)N)C(=O)N1CCC[C@H]1C(=O)N[C@H](C(N)=O)C(C)C (some centres unmarked) [fluorine-18 labelled] |  | C57BL/6 mice, male, B16-F10 tumour, liver | intravenous, 1 h |  | tissue uptake | 1.36 ± 0.22 %ID/g |
| ONc1ccc2c(c1)Cc1ccccc1-2 | reconstructed skin micronucleus | EpiDerm reconstructed skin | concentration not given, 48 h, together with: cytochalasin B 3 µg/mL |  | cytotoxicity threshold dose | 1.3 µg/cm2 |
| CCCCCCCCCCCCCCCCCC(=O)N[C@H](C(=O)N[C@H](C(=O)N[C@@H](CCCNC(=N)N)C(=O)N[C@@H](CCCNC(=N)N)C(=O)N[C@@H](C)C(=O)N[C@@H](CC(=O)O)C(=O)N[C@@H](CCCNC(=N)N)C(=O)N[C@@H](C)C(=O)N[C@@H](C)C(=O)N[C@H](C(=O)N1CCC[C@H]1C(=O)NCC(=O)NCC(=O)NCC(=O)NCC(=O)N[C@@H](CCCNC(=N)N)C(=O)NCC(=O)N[C@@H](CC(=O)O)C(=O)O)C(C)C)C(C)C)[C@@H](C)CC | ELISA | Sprague Dawley rat male, blood | intravenous, 2.415 mg/kg |  | clearance | 72.5 ± 10.7 mL/min/kg |
| Cc1cccc(C)c1OCC(=O)N[C@@H](Cc1ccccc1)[C@@H](O)C[C@H](Cc1ccccc1)NC(=O)[C@H](C(C)C)N1CCCNC1=O |  | male Sprague-Dawley rats, plasma | oral, 160 mg/kg, together with: QPD 6 g/kg oral, 30 min before |  | AUC(0-inf) | 12400 ng·h/mL |
| CC(C)C[C@H](NC(=O)[C@H](CCC(=O)O)NC(=O)[C@H](CCC(=O)O)NC(=O)[C@H](CC(=O)O)NC(=O)[C@H](CCC(=O)O)NC(=O)[C@H](CCC(=O)O)NC(=O)[C@H](CCC(=O)O)NC(=O)[C@@H](N)CC(=O)O)C(=O)O |  | rat, plasma | subcutaneous, 11.0 mg/kg single dose, 90 min |  | plasma concentration | 2360 ng/mL |
| Cc1ccc(Nc2nccc(N(C)c3ccc4c(C)n(C)nc4c3)n2)cc1S(N)(=O)=O |  | patients, plasma | oral, 800 mg, 24 h, fasted, geometric mean, together with: pantoprazole |  | Cmin | 26600 ng/mL |
| CC(=O)O[C@H]1C(=O)[C@@]2(C)[C@H]([C@H](OC(=O)c3ccccc3)[C@]3(O)C[C@H](OC(=O)[C@H](O)[C@@H](NC(=O)c4ccccc4)c4ccccc4)C(C)=C1C3(C)C)[C@]1(OC(C)=O)CO[C@@H]1C[C@@H]2O |  | BALB/c mouse, serum | intraperitoneal, 10 mg/kg every three days, 60 days |  | uric acid | 90.8 U/L and 247 U/L and 185 U/L |
| GLASTLTRWAHYNALIRAF | circular dichroism | peptide, 20% TFE |  |  | critical aggregation concentration | 50 µM |

Repeated from above:
| Molecule | assay | system | conditions | how to read | quantity | result |
| --- | --- | --- | --- | --- | --- | --- |
| Cc1ccncc1OC(=O)NCCCCCn1ccc2ccc(F)cc21 |  | porcine liver S9 fraction | 20 µM, 30 min, together with: BNPP 1 mM |  | inhibition of degradation | 45% |
| CC(C)C(=O)OC[C@H]1O[C@@H](n2ccc(NO)nc2=O)[C@H](O)[C@@H]1O |  | rat blood dialysate | 250 ng/mL, 6 h, 10 °C, autosampler stability, together with: NHC 1000 ng/mL |  | remaining compound | 100.3 ± 0.99% |
